Published values pooled from the literature.
Protocols differ between the studies behind these lines.

Structure (SMILES) | assay | test system | setting | measurement | result
CC(=O)c1c(C)c2cnc(Nc3ccc(C4CCN(CCS(C)(=O)=O)CC4)cn3)nc2n(C2CCCC2)c1=O | – | HR+/HER2- advanced breast cancer patients | oral, 100 mg | patients with any TRAE | 100%
COc1nnc2ccc(N3CCC(c4ccc(OCCN5CCN(C)C(=O)[C@H]5C)cc4)CC3)nn12 | measured: fatigue | patients with solid tumours or lymphoma | oral, dose not given, all grades, treatment-emergent | patients with adverse event | 38.2%
Nc1nc2cc(-c3ccc4ncc(C(=O)N5CCOCC5)n4c3)ccc2o1 | measured: Diarrhea | advanced solid tumour patients | dose not given, all grades, all doses | patients with adverse event | 46%
O=C1Nc2cc3[nH]nc(-c4ccncc4)c3cc2CN1Cc1ccccc1 | CTCAE v4.03 | advanced solid tumour patients | intravenous, 7.2 mg/kg, schedules 1/2 | patients with fatigue | 20%
CO[C@H]1C[C@@H]2CC[C@@H](C)[C@@](O)(O2)C(=O)C(=O)N2CCCC[C@H]2C(=O)O[C@H]([C@H](C)C[C@@H]2CC[C@@H](OC(=O)NCCOCCOCCOCCOCCOCCOCCOCCOCCC(=O)N3CCc4cc(Cn5nc(-c6ccc7oc(N)nc7c6)c6c(N)ncnc65)ccc4C3)[C@H](OC)C2)C[C@@H](O)[C@H](C)/C=C(\C)[C@@H](O)[C@@H](OC)C(=O)[C@H](C)C[C@H](C)/C=C/C=C/C=C/1C | measured: treatment-related AEs | patients with advanced solid tumours | intravenous, dose not given, any grade, all doses | patients with AE | 0%
C=CCNc1c(O)cc2c(O)c1C[C@@H](C)C[C@H](OC)[C@H](O)[C@@H](C)/C=C(\C)[C@H](OC(N)=O)[C@@H](OC)/C=C\C=C(/C)C(=O)N2 | measured: Fatigue | unresectable or metastatic GIST/STS | intravenous, dose not given, all doses | patients with TEAE | 74%
COc1c(C)cnc(Cn2cc(C#CCCOP(=O)(O)O)c3c(Cl)nc(N)nc32)c1C | – | patients, advanced solid tumours | dose not given, all doses | patients with abnormal dreams | 17%
CCNCCCNC/C=C\CNCCCNCC | – | advanced refractory solid tumour patients | intravenous, dose not given, cycle 2 | patients with TEAEs | 70%
CN1CC[C@@H](c2c(O)cc(O)c3c(=O)cc(-c4ccc(C(F)(F)F)cc4Cl)oc23)[C@@H]1CO | measured: Anemia | B-cell malignancies | oral, 150 mg, intermittent dosing | patients with adverse event | 0%
N[C@@H]1c2ccccc2OC12CCN(c1cnc3c(N4CCCc5ncccc54)n[nH]c3n1)CC2 | – | advanced solid tumour patients | oral, 20 mg once daily | patients with serious TEAE | 0%
C=CC(=O)N1CC[C@H](n2nc(C#Cc3cc(OC)cc(OC)c3)c3c(N)ncnc32)C1 | – | hyperphosphataemia patients | oral, once daily, grade ≥3, ferric citrate users | patients with ADR | 100%
COc1cc2c(Oc3ccc4[nH]c(C)cc4c3F)ccnc2cc1OCC1(N)CC1 | – | paediatric refractory sarcoma patients | dose not given | patients with grade 3 AST elevation | 0%
